Published values from different studies.
Every numbered part comes from another study and shows a few of its results, in no order.

Series 1 — technique: RNA Bind-n-Seq; molecule type: RNA; medium: in vitro; tested at: 365 nM; reference: no-protein control; direction: higher = stronger binding; measurement: RBNS enrichment (R)
Target: RNA binding protein fox-1 homolog 2, RRM domain, GST-SBP tag (RBFOX2, Homo sapiens, UniProt O43251-10, residues 100-194)
Setting: natural RNA segment, single round, ends assumed
All sequences stand within: GGGAGUUCUACAGUCCGACGAUC … UGGAAUUCUCGGGUGCCAA
Residues (chain): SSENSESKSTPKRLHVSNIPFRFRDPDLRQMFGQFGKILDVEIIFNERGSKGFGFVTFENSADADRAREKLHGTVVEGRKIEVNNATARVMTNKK
UUAAAAAUGUGGACUUCAUAGGAAGGCGUGAGUACAAUUAGUAUAAUGCAUAACUCAUUGUUGUCCUAGAUAUUUUGAUAUUUACCUUUAUGUUGAAUGCUAUUAAAUGU: 0.908
UAUUCCCUUAGGACAGAAAAUUGCAUGUGAGGUGGGAUAAUCGAGUUUCAGUGACCCACGUCAGUUACACAUUAAAGCCAGACCCCAUGAUAAAAUUCCACAAAAUGGAA: 3.55
CAUAAUUGAUAUCUUAUAGCUUUCAAGUAAAGUGUUUUCUAUAACUCAGAUAAUUAAUUUGAAGCAAGAAAGAAGGUAAAAAUGAGGUUUCCCAGCCAUGUUGCUGCUUU: 0.327
UUAUCCCUCCUGGGUCAUGGGAAAAGUCAGUCUCCACAUUACAGAUCACUUCCAGAGGGAGGCUGGAGGGAUGGUCAUACAGCGGGGCCAAGGUAGGGGUGGUCUCAGAC: 0.97
UUCUAGAAACAGUUUGGUAAACAUAAAAGAGAGCAAGAUCAUUCUCGAUCUUCAUCCUCUUCAGCAUCACCUUCUUCUCCCAGUUCUCGAGAAGAAAAGGAGAGUAAGAA: 0.526
UUAUUGUUAUCACCUAUGUACAAUGGAAAGGGAUUUUAAGCACAAACCUGCUGCUCAUCUAACGUUGGUACAUAAUCUCAAAUCAAAAGUUAUCUGUGACUAUUAUAUAG: 0.349
CAGCAGCCCUCAUGGCCCCUUUCCUGUACCAAGCACCCAGCUCUCCUCUUGUUCUGAAAGGGAUUUCACAUCUUCAGCGUAGCUUCAGUACAUCAUCGGAGGAGUCUGCU: 0.414
UGAAUUUGUUUUCUGUGAAUUCUAACCUCUAAAGGCAUGCUUAGAGGUCAAGGACCUUCCUGUGUAGUUGGUGCAAAAGCAAUCUCCACAGGACAGCACUGCUUCCAUGC: 25.7
UGGGGCCAGGGGACCAAGAGUCAGCAAGCAAUAAGACGCCACCCUCACUGUCCUCAGGAGCCAGGCAUCCUCCCUGGGUGCCCACUCUUUGCAUCUGCUUUUCCUGUAAG: 0.977
CACAGAACUUGAAUACAUGAGGGAACCAGAGUUCAAAGUCCUAUGCAACCUUAGGAGGGGGUUAGAGAGUCUGUUUUGAUUGAUGUUUUCUGAGGCCCUAGAGGAGUUUG: 2.75
GGCCGGGAAAAGAGACAGGCAGCUCCUCAGCCUGAGAACGCCGCCGAUGCGACCAAGUGUCAGGCUCUAUGUGCCAUGCUUCAGAGUGCCCACCUUGAGAGAAGCCACCU: 0.392
UUUUUUGAGACAGAGUCUCUCUCUGUUGCCCAGGCUGGAGUGCAGUGGCACAAUCUCGGCUCACUGCAGCCUCCGCCUGCCGGGUCAAGCGAUUCUCCUACCUCAGCCUC: 0.277

Series 2 — technique: RNA Bind-n-Seq; molecule type: RNA; medium: in vitro; tested at: 200 nM; setting: whole 134-nt RNA, ends assumed; together with: 150 mM LiCl; reference: input library; direction: higher = stronger binding; measurement: log2 enrichment; each molecule: 7-deaza-guanosine replaces G
Target: Fragile X messenger ribonucleoprotein 1, C-terminal low-complexity region (Fmr1, Mus musculus, UniProt P35922)
All sequences stand within: GGGAGUUCUACAGUCCGACGAUC … UGGAAUUCUCGGGUGUCAAGG
CAAGUCCUGUGCUACACAUCGUAUGUACCGAAUCGGUUUUGGUUUUGGGUUUUGGAAAGUAUUAUGUUACGCCGUUCGGAUCUGCACUUC: -1.68
AGUCCUGUGCUACACAUCGUAUGUACCGAAUCGGGAAAAAGGGAAAAAGGAAAAAGGGAAAGUAUUAUGUUACGCCGUUCGGAUCUGCAC: -0.896
ACCAUGCAGGUGGGCAUCUUUGGGAAGUGGGGAAAGGGGGGGAUAGGGAGGGGGGUAACACUUUGGGAACAGGUGGUCCCAGGUCGUUUC: 1.6
UCAAGUCCUGUGCUACACAUCGUAUGUACCGAAUCGGGGUUGGUUGGGGUUGGGGAAAGUAUUAUGUUACGCCGUUCGGAUCUGCACUUC: -1.11
AAGUCCUGUGCUACACAUCGUAUGUACCGAAUCGGGAAAGGGUGGGUUUUUUUGGGAAAGUAUUAUGUUACGCCGUUCGGAUCUGCACUU: -1.68
CCUCAAGUCCUGUGCUACACAUCGUAUGUACCGAAUCGGGGUGGGUGGGUGGAAAGUAUUAUGUUACGCCGUUCGGAUCUGCACUUCCAG: -0.739
AAGUCCUGUGCUACACAUCGUAUGUACCGAAUCGGGAGGGAAAAAGGGAAAAAGGGAAAGUAUUAUGUUACGCCGUUCGGAUCUGCACUU: -0.111
UGCCAGGCCCACCCCCAGGUGUUCCCGCGCCUGGGGGCCCACCCCUGUCCACCGGACCUAUAGUGGACCUGCUCCAGUACAGCCAGAAGG: 0.529
CACAGACAACACGCACCCACACACACACAGAGGGAAGGGGUUGGGAUGGGGACAGGGUGCACAGCAGGGCGGGGUAGGACCCCAGCCCCU: 0.142
CUGUGCUACACAUCGUAUGUACCGAAUCGGGCCCCCCGGGGCCCCCCGGGGCCCCCCGGGGAAAGUAUUAUGUUACGCCGUUCGGAUCUG: -2.89
AGUCCUGUGCUACACAUCGUAUGUACCGAAUCGGGGUUUGGGGUUUGGGGUUUGGGGAAAGUAUUAUGUUACGCCGUUCGGAUCUGCACU: -1.32

Series 3 — technique: RNA Bind-n-Seq; molecule type: RNA; medium: in vitro; tested at: not given; setting: RNA with constant flanks, ends assumed; reference: input RNA pool; direction: higher = stronger binding; measurement: bound/input enrichment
Target: RING finger protein unkempt homolog, zinc fingers 1-6, GST-SBP tag (UNK, Homo sapiens, UniProt Q9C0B0, residues 30-357)
Sequence of UniProt Q9C0B0 (30-357, looked up): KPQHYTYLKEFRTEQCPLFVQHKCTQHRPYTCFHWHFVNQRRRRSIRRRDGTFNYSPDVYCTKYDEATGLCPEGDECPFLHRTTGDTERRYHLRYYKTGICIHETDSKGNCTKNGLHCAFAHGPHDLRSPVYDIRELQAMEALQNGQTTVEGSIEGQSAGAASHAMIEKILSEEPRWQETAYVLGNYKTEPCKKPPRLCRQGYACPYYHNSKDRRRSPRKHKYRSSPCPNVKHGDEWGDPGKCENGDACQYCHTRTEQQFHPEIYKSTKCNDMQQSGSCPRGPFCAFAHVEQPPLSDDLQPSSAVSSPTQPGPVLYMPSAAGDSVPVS
All sequences stand within: GGGAGUUCUACAGUCCGACGAUC … CAACAGAGGAUUGAGCAUCA
UUUAAAACAGGUCUAAAGGCUUUGAUGACAGUAGGGAAAGAACCAUUUCCUACCAUUUACGCCGAUUCACAAAAAGAAAAUGAGAGGUGGAAUGUUAUUUCUAAAUCACAGUUGAAGAAC: 0.188 ratio
CAGCAGUUGUAUUCUUUAUUAGCUUGGUAGAUCAUUUUCUCUCGCUCUUUUUUUUAAUACCCGCAACUUUCAUCCUUUGAAACGUGUGCUGAAAAAGAAGAAUCAGCAAAUACUACUGAA: 0.432 ratio
AAGGUGCUUGAACCAUAUCCAUCAAAAUUAAGCGGCCUGAAAGGGAAAAAUAUCUUCCCCGCCGCUGCUACACUCAGACCUGAGACUAUGUUUGGGCAGACAAAUUGUUGGGUUCGGCCU: 0.22 ratio
UCUCUCGAGUUGAAGAAGACUAUCUCUGGAGGAUAAAACAACUAGGAUCCCACUCUCCAGCCGCACUUUUGAAUACCCUAUUCUACUUUAACACUAAGUAUUUUGGCCUGAAAACAGUGG: 0.144 ratio
CUGUAUCUUUCUGCUAUUCGAAAGAUCCCAGCCUUGACUGAAAAUGAUCCUGAAACUUGGACCGUUUGUAAUUUUUCUGUGGAUCAUGAUAGUGCUCCUCUGAACAAUCGAUGUGUCCGU: 0.113 ratio
UUCAUUCUGCUAUUCCAGAGACUUCAGAAUUCCAAAACAACCAAGUUUAUCAAGAGUUUUUCCGUCUUUAUUAAUUUGUAUUGCAUAAAAUAUGGGGCACUAGCACUACAAGAAAUAUUU: 0.995 ratio
CCAACGCUCUGCUCCCUGGCAACCCCGAACACUUGGGAUGUCUCGCUGCUGUUUGCCUUCAUCCGUUUGCUCAUCAUGUUUCCCACGUGCUGGAUUGUGUCCUCCUGGCUGGUGUGGGGA: 0.28 ratio
UAUUCUUCUGGGAGCAGAAAAGGGUUUUUGUCAGGCUUGCUAGAUAACAUCAAACAAGAAUCCGCCAAAAACAAAGAGAUGAAAGAAAGUAUAAAAAAGUUCCGAGAUGAGGCCAAGAAG: 0.406 ratio
CUCAAGAAAACAUCUUCAAGUGACUAUUCAAUUUUCGACAACUAUUAUAUUCCAGAAAUAACCCGUGUUUUACUACUUCGAUCCUGUAAGACUUUAACCCAUGAGAUCGGACACAUAUUU: 0.644 ratio
GCAGGAGCAUCAGUAGACCUAACAAUUUUCUCCCUUCAUUUAGCUGGAGUGUCAUCUAUUUCCGGUGCAAUUAAUUUUAUUACCACUAUUAUCAACAUGAAACCCCCAGCCAUAACACAG: 1.12 ratio
UAUUACGUAUUGUAGAAGGCCAUUGUUAACAAGAGUCUCCUGCUAUGAACCUGUUUGCAUUUCCGAAUCAGAGAAACUUUUAAUUUAUAACCUUUUAAGAAUCGAGGUCUUCAGCUCUGA: 0.474 ratio

Series 4 — technique: universal PBM; molecule type: double-stranded DNA, one strand shown; medium: in vitro; tested at: not given; direction: higher = stronger binding; measurement: E-score
Target: Sal-like protein 4, full length isoform B (SALL4, Homo sapiens, UniProt Q9UJQ4-2, residues 1-616)
Setting: 8-mer, flanks averaged, mean of replicates
Residues (chain): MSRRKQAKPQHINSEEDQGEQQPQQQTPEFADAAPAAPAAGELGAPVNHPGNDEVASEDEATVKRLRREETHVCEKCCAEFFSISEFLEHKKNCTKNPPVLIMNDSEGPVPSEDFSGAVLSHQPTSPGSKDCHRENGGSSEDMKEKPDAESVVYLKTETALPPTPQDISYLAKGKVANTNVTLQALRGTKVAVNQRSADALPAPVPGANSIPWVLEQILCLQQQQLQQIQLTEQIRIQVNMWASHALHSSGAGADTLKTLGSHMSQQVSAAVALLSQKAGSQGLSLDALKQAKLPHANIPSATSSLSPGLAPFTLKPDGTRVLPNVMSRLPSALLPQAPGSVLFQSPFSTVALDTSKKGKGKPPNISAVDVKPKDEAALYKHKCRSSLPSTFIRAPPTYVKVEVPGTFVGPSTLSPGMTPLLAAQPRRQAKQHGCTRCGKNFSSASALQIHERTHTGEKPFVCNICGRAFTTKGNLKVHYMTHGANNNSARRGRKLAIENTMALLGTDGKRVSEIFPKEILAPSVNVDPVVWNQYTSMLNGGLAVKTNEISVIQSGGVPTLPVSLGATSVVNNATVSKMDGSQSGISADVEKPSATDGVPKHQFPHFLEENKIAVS
ACGTGTAC: 0.0688
GGTGATGA: 0.00874
CGAGGTAG: -0.247
CAATGTTA: 0.238
AGAGGGGC: -0.28
CCATAGAC: 0.0101
AGTCTCTG: -0.217
TCACCTGA: -0.0364
CACAGCCA: -0.237
GTCGCGGA: -0.382
AGCGAACT: -0.066
ACGAAGTA: -0.0674
AGCGAACC: -0.132
CACGTGCA: -0.112
CAAGATAA: 0.22
GGATCTGA: -0.118

Repeated from above (series 3):
UCUCUCGAGUUGAAGAAGACUAUCUCUGGAGGAUAAAACAACUAGGAUCCCACUCUCCAGCCGCACUUUUGAAUACCCUAUUCUACUUUAACACUAAGUAUUUUGGCCUGAAAACAGUGG: 0.144 ratio
CUGUAUCUUUCUGCUAUUCGAAAGAUCCCAGCCUUGACUGAAAAUGAUCCUGAAACUUGGACCGUUUGUAAUUUUUCUGUGGAUCAUGAUAGUGCUCCUCUGAACAAUCGAUGUGUCCGU: 0.113 ratio
UUCAUUCUGCUAUUCCAGAGACUUCAGAAUUCCAAAACAACCAAGUUUAUCAAGAGUUUUUCCGUCUUUAUUAAUUUGUAUUGCAUAAAAUAUGGGGCACUAGCACUACAAGAAAUAUUU: 0.995 ratio
CCAACGCUCUGCUCCCUGGCAACCCCGAACACUUGGGAUGUCUCGCUGCUGUUUGCCUUCAUCCGUUUGCUCAUCAUGUUUCCCACGUGCUGGAUUGUGUCCUCCUGGCUGGUGUGGGGA: 0.28 ratio
UAUUCUUCUGGGAGCAGAAAAGGGUUUUUGUCAGGCUUGCUAGAUAACAUCAAACAAGAAUCCGCCAAAAACAAAGAGAUGAAAGAAAGUAUAAAAAAGUUCCGAGAUGAGGCCAAGAAG: 0.406 ratio
